Results gathered from unrelated publications.
Numbered parts are unrelated; each lists some results of a single study. Values joined by “and” are separate records of one study, mostly repeats; a detail may differ. Changes are numbered by the printed parent chain.
Chain of UniProt Q9UF33 (whole entry, looked up): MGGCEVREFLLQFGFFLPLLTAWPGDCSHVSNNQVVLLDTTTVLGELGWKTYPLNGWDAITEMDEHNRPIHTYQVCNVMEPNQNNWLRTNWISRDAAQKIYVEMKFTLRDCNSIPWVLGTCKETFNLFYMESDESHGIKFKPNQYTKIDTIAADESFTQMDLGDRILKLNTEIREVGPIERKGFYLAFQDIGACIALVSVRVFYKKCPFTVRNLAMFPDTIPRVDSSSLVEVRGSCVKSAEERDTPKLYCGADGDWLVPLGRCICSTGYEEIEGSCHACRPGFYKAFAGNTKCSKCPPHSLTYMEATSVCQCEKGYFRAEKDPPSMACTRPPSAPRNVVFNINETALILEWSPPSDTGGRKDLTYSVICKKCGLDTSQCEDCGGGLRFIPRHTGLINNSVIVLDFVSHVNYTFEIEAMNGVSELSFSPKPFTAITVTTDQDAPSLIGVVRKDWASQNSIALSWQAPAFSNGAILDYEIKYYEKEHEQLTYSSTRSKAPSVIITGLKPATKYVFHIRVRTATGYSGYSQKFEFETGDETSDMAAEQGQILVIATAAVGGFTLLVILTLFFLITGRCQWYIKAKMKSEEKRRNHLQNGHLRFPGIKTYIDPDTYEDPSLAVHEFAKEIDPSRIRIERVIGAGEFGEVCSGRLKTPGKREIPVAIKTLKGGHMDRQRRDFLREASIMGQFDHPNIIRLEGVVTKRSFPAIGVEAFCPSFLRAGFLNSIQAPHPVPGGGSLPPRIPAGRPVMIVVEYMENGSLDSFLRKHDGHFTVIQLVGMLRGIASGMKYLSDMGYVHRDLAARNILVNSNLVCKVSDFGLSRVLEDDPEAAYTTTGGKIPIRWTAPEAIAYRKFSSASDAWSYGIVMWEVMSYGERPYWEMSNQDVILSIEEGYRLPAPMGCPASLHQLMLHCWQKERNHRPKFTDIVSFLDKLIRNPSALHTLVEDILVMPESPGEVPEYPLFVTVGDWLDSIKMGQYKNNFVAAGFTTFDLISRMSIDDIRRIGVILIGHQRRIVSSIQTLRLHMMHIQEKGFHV

Set 1
Target: CCNE1, cyclin fold, Cln2 fusion (human)
Technique: yeast growth competition, sequencing
Medium: yeast
Notes: strong parent motif
Reference: not given
Direction: higher = stronger binding
Starting sequence: viral docking peptide; KGVKRKLFAEDSS; partner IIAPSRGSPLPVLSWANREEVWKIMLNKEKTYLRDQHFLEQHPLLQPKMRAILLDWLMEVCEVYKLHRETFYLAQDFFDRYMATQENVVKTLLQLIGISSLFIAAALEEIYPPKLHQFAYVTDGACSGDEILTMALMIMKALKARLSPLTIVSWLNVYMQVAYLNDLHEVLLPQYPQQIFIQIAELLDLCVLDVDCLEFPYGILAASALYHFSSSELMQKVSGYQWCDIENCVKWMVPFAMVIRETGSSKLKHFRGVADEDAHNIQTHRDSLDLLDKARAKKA
`KGVKRGLFAEDSS [K6G]` — result for “normalised enrichment score”: 0.998.
Under “normalised enrichment score”, `KGVKRKLAAEDSS [F8A]` is recorded as 0.311.
`KGVKSKLFAEDSS [R5S]` — result for “normalised enrichment score”: 0.134.
`KEVKRKLFAEDSS [G2E]`: “normalised enrichment score” 6.97.
Under “normalised enrichment score”, `KYVKRKLFAEDSS [G2Y]` is recorded as 6.98.
For `KGVKRKWFAEDSS [L7W]`, “normalised enrichment score” read -0.232.
`KGVKHKLFAEDSS [R5H]` — result for “normalised enrichment score”: 0.728.
`KGVKRKLFGEDSS [A9G]` — result for “normalised enrichment score”: 7.43.

Set 2
Target: UBE2W UBC core domain (UniProt Q96B02)
Technique: yeast two-hybrid
Medium: yeast
Notes: mostly zero background
Reference: not given
Direction: higher = stronger interaction
B1: RFPL2 RING domain (UniProt O75678); chain MAALFQEASSCPVCSDYLEKPMSLECGCAVCLKCINSLQKEPHGEDLLCCCSSMVSRKNKIRR
B2: TRIM55 RING domain (UniProt Q9BYV6); chain TMDNLEKQLICPICLEMFTKPVVILPCQHNLCRKCASDIFQASNPYLPTRGGTTMASGGRFRCPSCRHEVVLDRHG
B3: RNF4 RING domain (UniProt P78317); chain TGLRPSGTVSCPICMDGYSEIVQNGRLIVSTECGHVFCSQCLRDSLKNANTCPTCRKKINHKRYHP
B4: RNF112 RING domain (UniProt Q9ULX5); chain QPMAPRELPTCSICLERLRDPISLDCGHDFCIRCFSTHRLPGCEPPCCPECRKICKQKRGLR
B5: UBE4A RING domain (UniProt Q14139); chain LQQQEEETYADACDEFLDPIMSTLMCDPVVLPSSRVTVDRSTIARHLLSDQTDPFNRSPLTMDQIRPNTELKEKIQRWLAERKQQKEQLE
Target sequence (chain): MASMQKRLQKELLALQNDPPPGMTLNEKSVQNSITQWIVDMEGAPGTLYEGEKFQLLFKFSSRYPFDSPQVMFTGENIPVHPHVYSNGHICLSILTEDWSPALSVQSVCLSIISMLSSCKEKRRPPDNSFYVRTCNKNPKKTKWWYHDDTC
For `B1 (RFPL2 RING domain)`, “lacZ reporter activity” read 0.
`B2 (TRIM55 RING domain)`: “lacZ reporter activity” 0.
Under “lacZ reporter activity”, `ISNDSETLEECMVCSDMKRDTLFGPCGHIATCSLCSPRVKKCLICKEQVQSRTKIE (MIB1 RING domain (UniProt Q86YT6))` is recorded as 0.
Under “lacZ reporter activity”, `B3 (RNF4 RING domain)` is recorded as 5140.
For `KIKDLNEHIVCCLCAGYFVDATTITECLHTFCKSCIVKYLQTSKYCPMCNIKIHETQPLL (PCGF1 RING domain (UniProt Q9BSM1))`, “lacZ reporter activity” read 0.
`B4 (RNF112 RING domain)`: “lacZ reporter activity” 0.
For `KRQCSDVDDICSICQAEFQKPILLICQHIFCEECMTLWFNREKTCPLCRTVISDHINKW (RNFT1 RING domain (UniProt Q5M7Z0))`, “lacZ reporter activity” read 0.
Under “lacZ reporter activity”, `B5 (UBE4A RING domain)` is recorded as 0.

Single results of other studies
The survival of CC(C)S(=O)(=O)c1ccc2nccc(Nc3ccc4sc(C5CCCC5)nc4c3)c2c1.Cl is reported as 105% and 101% and 99.9% and 103% and 95.5% (L929 RIPK3-/- reexpressing RIPK3 K51A; CCK-8; 12.5 µM).
The remaining activity of COC[C@H]1OC(=O)c2coc3c2[C@@]1(C)C1=C(C3=O)[C@@H]2CCC(=O)[C@@]2(C)C[C@H]1OC(C)=O is reported as 89.7% (Ephrin type-A receptor 6 (EPHA6, Homo sapiens, UniProt Q9UF33); enzyme activity, inhibitor; 0.5 µM; reference: control).

Some of these lines once more (set 2):
Under “lacZ reporter activity”, `ISNDSETLEECMVCSDMKRDTLFGPCGHIATCSLCSPRVKKCLICKEQVQSRTKIE (MIB1 RING domain (UniProt Q86YT6))` is recorded as 0.
Under “lacZ reporter activity”, `B3 (RNF4 RING domain)` is recorded as 5140.
